Assay results pooled from the literature.
Protocols differ between the studies behind these lines. Numbers after ± are the reported error.

Structure (SMILES)	assay	system	conditions	how to read	measurement	value
CC[C@H](C)[C@H](NC(=O)[C@H](Cc1ccccc1)NC(=O)[C@H](CCC(=O)O)NC(=O)[C@H](CCCCNC(=O)COCCOCCNC(=O)COCCOCCNC(=O)CC[C@H](NC(=O)CCCCCCCCCCCCCCCCC(=O)O)C(=O)O)NC(=O)[C@H](C)NC(=O)[C@H](C)NC(=O)[C@H](CCC(N)=O)NC(=O)CNC(=O)[C@H](CCC(=O)O)NC(=O)[C@H](CC(C)C)NC(=O)[C@H](Cc1ccc(O)cc1)NC(=O)[C@H](CO)NC(=O)[C@H](CO)NC(=O)[C@@H](NC(=O)[C@H](CC(=O)O)NC(=O)[C@H](CO)NC(=O)[C@@H](NC(=O)[C@H](Cc1ccccc1)NC(=O)[C@@H](NC(=O)CNC(=O)[C@H](CCC(=O)O)NC(=O)C(C)(C)NC(=O)[C@@H](N)Cc1cnc[nH]1)[C@@H](C)O)[C@@H](C)O)C(C)C)C(=O)N[C@@H](C)C(=O)N[C@@H](Cc1c[nH]c2ccccc12)C(=O)N[C@@H](CC(C)C)C(=O)N[C@H](C(=O)N[C@@H](CCCNC(=N)N)C(=O)NCC(=O)N[C@@H](CCCNC(=N)N)C(=O)NCC(=O)O)C(C)C	12-lead Holter ECG	healthy humans	subcutaneous, 1.5 mg once weekly, 18 h, steady state	reference: placebo	QTcF change from baseline	-1.6 ms
CC(C)C[C@H](NC(=O)[C@@H](Cc1c[nH]c2ccccc12)NC(=O)[C@H](Cc1ccc(O)cc1)NC(=O)[C@H](CO)NC(=O)[C@H](Cc1c[nH]c2ccccc12)NC(=O)[C@H](Cc1c[nH]cn1)NC(=O)[C@@H]1CCC(=O)N1)C(=O)N[C@@H](CCCNC(=N)N)C(=O)N1CCC[C@H]1C(=O)NCC(N)=O	–	Chinese CPP children, girls	intramuscular, 22.5 mg, 12 months, day 1, month 6	–	patients, serious adverse events	0%
COc1cc2c(Nc3ccc(Cl)c(Cl)c3F)ncnc2cc1OC[C@@H]1C[C@@H]2CN(C)C[C@@H]2C1	–	FVB Mdr1a/b(-/-)Bcrp1(-/-) triple knockout mice, both sexes, brain	intraperitoneal infusion (osmotic pump), dose not given, 48 h	–	brain concentration	30600 ng/g
C[C@H]1CN(C(=O)CC#N)[C@]12CCN(c1ncnc3[nH]ccc13)C2	–	healthy human	oral, 6 mg single	–	subjects with catheter site bruise	12.5%
CCOC(=O)N1C[C@@H](c2ccccc2O)N[C@@H](c2ccc(C(C)(C)C)cc2)C1	shake-flask, 1-octanol/buffer	–	pH 7.4	–	logD	> 4.7
CO[C@H]1C[C@@H]2CC[C@@H](C)[C@@](O)(O2)C(=O)C(=O)N2CCCC[C@H]2C(=O)O[C@H]([C@H](C)C[C@@H]2CC[C@@H](O)[C@H](OC)C2)CC(=O)[C@H](C)/C=C(\C)[C@@H](O)[C@@H](OC)C(=O)[C@H](C)C[C@H](C)/C=C/C=C/C=C/1C	–	healthy adult horses	intravenous, 0.06 mg/kg, 6 h	–	heart rate	32 ± 2.8 beats/min
C=CC[C@@H]1/C=C(\C)C[C@H](C)C[C@H](OC)[C@H]2O[C@@](O)(C(=O)C(=O)N3CCCC[C@H]3C(=O)O[C@H](/C(C)=C/[C@@H]3CC[C@@H](O)[C@H](OC)C3)[C@H](C)[C@@H](O)CC1=O)[C@H](C)C[C@@H]2OC	calcium-selective electrode	Wistar Kyoto rat, male, heparinized whole blood	ip, 0.5 mg/kg/day, day 28	–	free Ca2+	1.21 ± 0.06 mmol/L
O=C(COc1ccc(Cl)cc1)NC12CC(c3nnc([C@H]4C[C@@H](OC(F)(F)F)C4)o3)(C1)C2	–	human both sexes	oral, 145 mg once daily, 14 days	–	participants with procedural pain	57.1%
Cc1cc(-c2nccc3c2ccn3CC(=O)Nc2ccc(-c3cnccn3)cn2)ccn1	–	human	20 mg once daily, multiple ascending dose	–	subjects with coronavirus infection	0%
Cc1ccc(Sc2ccccc2N2CCNCC2)c(C)c1	refers to: Headache	healthy adult men	oral, 40 mg single dose, 10 day	–	participants with TEAE	0%
CN1CCC(Nc2ncnc3ccc(-c4cccc(N5CCOCC5)c4)cc23)CC1	–	human liver microsomes	–	–	CLint	34 µL/min/mg
CCCOc1ccc(NC(=O)CN2CCN(C)CC2)cc1-c1nc(CC)c(CC)c(=O)[nH]1	–	healthy Chinese men	10 mg, together with: alcohol 0.5 g/kg	–	headache incidence	13.3%
CCc1nnc(NS(=O)(=O)c2ccc(NC(=O)c3ccc(F)cc3)cc2)s1	–	octanol/buffer	pH 7.4	–	logD	1.02
CC(C)(C)c1ccc([C@H]2COC[C@H](C3CCCC3)N2)cc1	shake-flask, 1-octanol/buffer	–	pH 7.4	–	logD	> 4.7
CCN1/C(=C/C(C)=O)Sc2ccc(F)cc21	–	cynomolgus monkey	oral, 100 mg/kg, 6 h post-dose	reference: pre-dose	systolic blood pressure change	103 ± 8.3%
C#C[C@]1(O)CC[C@H]2[C@@H]3CCc4cc(O)ccc4[C@H]3CC[C@@]21C	substrate depletion	Sprague-Dawley rat, female, liver S9	3 µM, pH 7.4	–	intrinsic clearance	65.2 µL/min/mg
O=C1CCc2ccc(OCCCCN3CCN(c4cccc(Cl)c4Cl)CC3)cc2N1	refers to: Tremor	genotyped patients, CYP2D6 normal metabolizers	dose not given, long-acting oral or depot	–	adverse event incidence	5.8%
OCc1nc2ccc(NCc3ccc(C(F)(F)F)cc3)cc2[nH]1	–	Balb/c mice, male, lungs	intravenous, 1 mg/kg, 48 h	–	tissue concentration	not detected
Cc1cc(NC2CCN(C(=O)OC3CCN(C(=O)/C=C/CN(C)C)C3)CC2)n2ncc(C(C)C)c2n1 (stereo not drawn)	–	patients with advanced solid tumours	dose not given, QD arm, grade 3 or higher	–	patients with Headache	0%
C=CC(=O)NC1CCN(c2ncc3ncnc(Nc4ccc(Oc5ccc6c(c5)ncn6C)c(C)c4)c3n2)CC1	refers to: infections and infestations (SOC)	human male	oral, dose not given, CTCAE on-treatment AEs	–	adverse events incidence	6%
COc1cc2nccc(Oc3ccc(NC(=O)c4cc5c(n(-c6ccccc6)c4=O)CCCC5=O)nc3)c2cc1OC	–	human, relapsed/refractory AML	oral, 3 mg once daily, grade ≥3, any causality	–	patients with sinus tachycardia	10%
O=C(O)CN1CCCN2CCN(CC(=O)O)CCCN(CC1)Cc1cccc(n1)C2	–	64Cu complex	2 h, 70 °C, together with: DOTA excess	–	intact complex	97%
C=CC(=O)Nc1cc(Nc2nccc(-c3cn(C)c4ccccc34)n2)c(OC)cc1N(C)CCN(C)C	storage stability	human dried blood spots	72 h, on ice, high QC level	–	recovery	67.2%

Structure (SMILES)	assay	system	conditions	how to read	measurement	value
[O]=[Co].[O]=[Co][O][Co]=[O]	–	rat, female, urine, 24-h collection	oral gavage, single, 300 mg/kg (220 mg Co/kg), day 2, vehicle 0.5% HPMC	–	cobalt concentration	572 µg/L
c1ccc(-c2ccc([C@H]3COC[C@@H](C4CCCCC4)N3)cc2)cc1	shake-flask, 1-octanol/buffer	–	pH 7.4	–	logD	> 4.7
C[C@@H](O)CCOC(=O)C[C@@H](C)O	–	human	oral drink, dose not given, 180 min post dose, mean	–	diastolic blood pressure	67 mmHg
CC[C@H](C)CCCCC(=O)N[C@@H](CCN)C(=O)N[C@H](C(=O)N[C@@H](CCN)C(=O)N[C@H]1CCNC(=O)[C@H]([C@@H](C)O)NC(=O)[C@H](CCN)NC(=O)[C@H](CCN)NC(=O)[C@H](CC(C)C)NC(=O)[C@@H](Cc2ccccc2)NC(=O)[C@H](CCN)NC1=O)[C@@H](C)O	–	normal renal function subjects, urine	IV, 0.75 mg/kg, 0-24 h, arithmetic mean	–	cumulative urinary excretion	0.884 mg
C[C@@H](O)[C@H](NC(=O)c1ccc(C#CC#Cc2ccccc2)cc1)C(=O)NO	–	octanol/buffer	pH 7.4	–	logD	4
C[C@@H](Oc1ccc(S(C)(=O)=O)cc1C(=O)N1C[C@@H]2C[C@]2(c2cc(C(F)(F)F)on2)C1)C(F)(F)F	–	healthy young humans, plasma	oral, 10 mg single dose	–	%AUC extrapolated	26.8%
CC#CC(=O)N1CCC[C@H]1c1nc(-c2ccc(C(=O)Nc3ccccn3)cc2)c2c(N)nccn12	–	PBS	100 µM, 23 h, pH 8, 37 °C, together with: cysteine 10 mM	–	cysteine adduct formation	66%
CCOC(=O)N1C[C@@H](c2ccc(C(F)(F)F)cc2)N[C@@H](c2ccc(F)c(C#N)c2)C1	shake-flask, 1-octanol/buffer	–	pH 7.4	–	logD	> 4.7
O=C(Nc1nc2cccc(-c3ccc(CN4CCS(=O)(=O)CC4)cc3)n2n1)C1CC1	refers to: blood calcium increased	rheumatoid arthritis patients	oral, 30 mg once daily, 4 weeks, any relatedness	–	treatment-emergent adverse events	0%
COc1ccccc1NC(=O)CSc1nnc(-c2ccc(F)cc2)n1C	–	octanol/buffer	pH 7.4	–	logD	2.48
CN1CCN(c2cccc3c2CCN(C(=O)/C=C/c2c(-n4cnnn4)ccc(Cl)c2F)[C@@H]3C(=O)Nc2ccc(C(=O)O)cc2)C(=O)C1	–	healthy human subjects	intravenous infusion, 3 mg/h, 5 days	–	subjects with serious adverse event	0%
O=C1CC[C@H](N2Cc3cc(N4CCN(CC5CCN(c6ccc([C@@H]7c8ccc(O)cc8CC[C@@H]7c7ccccc7)cc6)CC5)CC4)ccc3C2=O)C(=O)N1	–	Sprague-Dawley rat	–	–	hepatic clearance, fu-corrected	19.8 mL/min/kg
Cc1ccc([C@@H]2O[C@H](CO)[C@@H](O)[C@H](O)[C@H]2O)cc1Cc1ccc(-c2ccc(F)cc2)s1	–	Japanese type 2 diabetes patients	200 mg, day 3, 24 h urine collection	reference: baseline	urinary chloride excretion change	-0.67 mEq
NC(CCCC(=O)O)C(=O)O (stereo not drawn)	binding, equilibrium dialysis LC-MS	–	5 µM, thermostabilized A2AR-BRIL construct	reference: no-protein control, direction not given	z-scored log2 fold change	0.21
CSc1cc(C)nc(SC)c1NC(=O)CN1CCN(CCSc2nc3ccccc3[nH]2)CC1.Cl	–	mouse, cerebrum	intranasal, 7 days daily, 120 min, HA 10 µL, LLOQ 0.5 ng/g	–	tissue concentration	not detected
Cc1cc(C)c(CNC(=O)c2cc(Cl)c3c(c2C)O[C@@](C)([C@H]2CC[C@H](N(C)C)CC2)O3)c(=O)[nH]1	population PK model	human	oral	–	first-order absorption rate constant	0.374 h⁻¹
NC1(C(=O)N[C@@H](CCO)c2ccc(Cl)cc2)CCN(c2nc[nH]c3nccc2-3)CC1	–	metastatic CRPC patients	dose not given, any grade, treatment-related, all doses, together with: enzalutamide 160 mg daily	–	incidence of Fatigue	33.3%
CC(C)c1nc(CN(C)C(=O)N[C@@H](CCN2CCOCC2)C(=O)N[C@H](CC[C@H](Cc2ccccc2)NC(=O)OCc2cncs2)Cc2ccccc2)cs1	–	human	oral, 150 mg, drug interaction trial	–	grade 3-4 TEAE	0%
CC(C)(C(=O)N1CCOc2c(C#N)cncc2C1)C(F)F	refers to: Ecchymosis	human	oral, 20 mg once daily, 14 days, multiple ascending dose	–	subjects with adverse event	0%
COc1ccc2c(c1)CN(C(=O)CCN1CCC(Cc3ccccc3)CC1)CC[S@@+]2[O-]	telemetry	conscious male beagle dogs	intravenous, 4 mg/kg, 4 h	–	QT interval	243 ± 17 ms
NC/C(=C\F)COc1cccc(Cn2c(=S)[nH]c(=O)c3[nH]cnc32)c1	–	C57BL/6J mice, lung	oral, 15 mg/kg single, 2 h	–	tissue concentration	294 ng/mL
O=C(OC(C(F)(F)F)C(F)(F)F)N1CCN(Cc2cccc(Oc3ccccc3)c2)CC1	PET blocking study	rhesus monkey, brain OCC	0.1 mg/kg, compound pretreatment, together with: [18F]T-401 tracer	–	k2	0.064 min⁻¹

Some of these lines once more:
Structure (SMILES)	assay	system	conditions	how to read	measurement	value
Cc1ccc([C@@H]2O[C@H](CO)[C@@H](O)[C@H](O)[C@H]2O)cc1Cc1ccc(-c2ccc(F)cc2)s1	–	Japanese type 2 diabetes patients	200 mg, day 3, 24 h urine collection	reference: baseline	urinary chloride excretion change	-0.67 mEq
NC(CCCC(=O)O)C(=O)O (stereo not drawn)	binding, equilibrium dialysis LC-MS	–	5 µM, thermostabilized A2AR-BRIL construct	reference: no-protein control, direction not given	z-scored log2 fold change	0.21
CSc1cc(C)nc(SC)c1NC(=O)CN1CCN(CCSc2nc3ccccc3[nH]2)CC1.Cl	–	mouse, cerebrum	intranasal, 7 days daily, 120 min, HA 10 µL, LLOQ 0.5 ng/g	–	tissue concentration	not detected
